{"data": "Results collected from several papers", "method": "steady-state kinetics", "B1": "MSS116 T307A (Saccharomyces cerevisiae, UniProt P15424); chain LYNDGNRDQRNFGRNQRNNNSNRYRNSRFNSRPRTRSREDDDEVHFDKTTFSKLIHVPKEDNSKEVTLDSLLEEGVLDKEIHKAITRMEFPGLTPVQQKTIKPILSSEDHDVIARAKTGTGKTFAFLIPIFQHLINTKFDSQYMVKAVIVAPTRDLALQIEAEVKKIHDMNYGLKKYACVSLVGGTDFRAAMNKMNKLRPNIVIATPGRLIDVLEKYSNKFFRFVDYKVLDEADRLLEIGFRDDLETISGILNEKNSKSADNIKTLLFSAALDDKVQKLANNIMNKKECLFLDTVDKNEPEAHERIDQSVVISEKFANSIFAAVEHIKKQIKERDSNYKAIIFAPTVKFTSFLCSILKNEFKKDLPILEFHGKITQNKRTSLVKRFKKDESGILVCTDVGARGMDFPNVHEVLQIGVPSELANYIHRIGRTARSGKEGSSVLFICKDELPFVRELEDAKNIVIAKQEKYEPSEEIKSEVLEAVTEEPEDISDIVISLISSYRSCIKEYRFSERRILPEIASTYGVLLNDPQLKIPVSRRFLDKLGLSRSPIGKAMFEIRDYSSRDGNNKSYDYDDDSEISFRGNKNYNNRSQNRDYDDEPFRRSNNNRRSFSRSNDKNNYSSRNSNIY", "B2": "MCAT R178Q (Homo sapiens, UniProt Q8IVS2); chain GQGSQVVGMGRGLLNYPRVRELYAAARRVLGYDLLELSLHGPQETLDRTVHCQPAIFVASLAAVEKLHHLQPSVIENCVAAAGFSVGEFAALVFAGAMEFAEGLYAVKIQAEAMQEASEAVPSGMLSVLGQPQSKFNFACLEAREHCKSLGIENPVCEVSNYLFPDCRVISGHQEALRFLQKNSSKFHFRRTRMLPVSGAFHTRLMEPAVEPLTQALKAVDIKKPLVSVYSNVHAHRYRHPGHIHKLLAQQLVSPVKWEQTMHAIYERKKGRGFPQTFEVGPGRQLGAILKSCNMQAWKSYSAVDVL", "B3": "bga (Niallia circulans, UniProt E5RWQ2); chain GNSVSYDGERRVNFNENWRFQRETNGSIAGAQNPGFDDSSWRKLNLPHDWSIELDFNKNSLATHEGGYLDGGIGWYRKTFTIPESMKGKRISLDFDGVYMNSTTYLNGEVLGTYPFGYNAFSYDISDKLYKDGRANVLVVKVNNTQPSSRWYSGSGIYRNVYLTVTDPIHVARYGTFVTTPNLEKSIKEDRADVNIKTKISNDAAEAKQVKIKSTIYDGAGNTVQTVETEEKTAAAGTVTPFEQNTVIKQPKLWSIDKPYRYNLVTEVIVGGQTVDTYETKFGVRYFKFDENEGFSLNGEYMKLHGVSMHHDLGALGAATNARGVERQMQIMKDMGVNAIRVTHNPASPELLEAANKLGLFIIEEAFDSWAQSKKPYDYGRFFNAWAEHDIKEMVDRGKNEPAIIMWSIGNEIYDTTNAAGVETARNLVGWVKEIDTTRPTTIGEDKTRGDKVNVTPINSYIKEIFNIVDVVGLNYSENNYDGYHKQNPSWKLYGSETSSATRSRGVYTHPYQYNQSTKYADLQQSSYDNDYVGWGRTAEDAWKYDRDLKHIAGQFIWTGFDYIGEPTPYYNSYPAKSSYFGAVDTAGFPKDIFYYYQSQWKKEPMVHLLPHWNWKEGEKVRVLAYTNASKVELVLNGESLGEKNYDNKQTSWGAPYKETKDGKTYLEWAVPFKPGKLEAVAKDENGKVIARDQVVTAGEPASVRLTADRKVVKADGTDLSFITADIVDSKGIVVPDADHLITFNVTGQGELAGVDNGNASSVERYKDNKRKAFSGKALAIVQSSKLSGKITVHASVAGLSSDSTSVFTVTP", "B4": "BshA S17A (Bacillus subtilis, UniProt P42982); chain MRKLKIGITCYPSVGGAGIIATELGKQLAEKGHEIHFITSSIPFRLNTYHPNIHFHEVEVNQYAVFKYPPYDLTLASKIAEVAERENLDIIHAHYALPHAVCAYLAKQMLKRNIGIVTTLHGTDITVLGYDPSLKDLIRFAIESSDRVTAVSSALAAETYDLIKPEKKIETIYNFIDERVYLKKNTAAIKEKHGILPDEKVVIHVSNFRKVKRVQDVIRVFRNIAGKTKAKLLLVGDGPEKSTACELIRKYGLEDQVLMLGNQDRVEDLYSISDLKLLLSEKESFGLVLLEAMACGVPCIGTNIGGIPEVIKNNVSGFLVDVGDVTAATARAMSILEDEQLSNRFTKAAIEMLENEFSSKKIVSQYEQIYADLAEPE", "B5": "enzyme (Mortierella alpina, UniProt U5Y6A8); chain MAPPHVVDEQVRRRIVVEDEIQSKKQFERNYVPMDFTIKEIRDAIPAHLFIRDTTKSILHVVKDLVTIAIVFYCATFIETLPSLALRVPAWITYWIIQGTVMVGPWILAHECGHGAFSDSKTINTIFGWVLHSALLVPYQAWAMSHSKHHKGTGSMSKDVVFIPATRSYKGLPPLEKPAAEEEVLEQEHHHHEESIFAETPIYTLGALFFVLTLGWPLYLIMNFSGHEAPHWVNHFQTVAPLYEPHQRKNIFYSNCGIVAMGSILTYLSMVFSPLTVFMYYGIPYLGVNAWIVCITYLQHTDPKVPHFRDNEWNFQRGAACTIDRSFGTIVNHLHHHIGDSHQCHHMFSQMPFYNAVEATKHLKAKLGKYYIFDDTPIAKALYRNWRECKFVEDEGDVVFYKH", "B6": "nicX (Pseudomonas putida, UniProt Q88FY1); chain MPVSNAQLTQMFEHVLKLSRVDETQSVAVLKSHYSDPRTVNAAMEAAQRLKAKVYAVELPAFNHPTAMGNDMTAYCGDTALTGNLAAQRALEAADLVVDTMMLLHSPEQEQILKTGTRILLAVEPPEVLARMLPTEDDKRRVLAAETLLKQARSLHVRSKAGSDFHAPLGQYPAVTEYGYADEPGRWDHWPSGFLFTWPNEDSAEGTLVLDVGDIILPFKNYCRERITLEIEKGFITGIHGGFEAEYLRDYMKYFNDPEVYGISHIGWGLQPRAQWTAMGLHDRNDGMCMDARAFYGNFLFSTGPNTEVGGKRKTPCHLDIPLRNCDIYLDDKAVVLAGDVVAPEESRAR", "B7": "enzyme (Tetranychus urticae, UniProt T1KUK4); chain MNPETMNENGKSLKILFTALFGPGHLNACLGIGSLLRKRGHQIYFAHFPRHRATIEKHGFLFISLLDYAEPEFPIVDMLPDIGIIAKFAFERMHKLTPLELFRHASGKHTFAGMVNGSKGENYAMMKIVKEYKPDVCLADYLFNMPWMFTVDCPVIPVKSVNPIELYNGPPALTGCSIHDPPSVREEIEQLARKSELELESELEKLFAHFNVPLVSYNYAQQLGIYIYPGPLDYKELGSPKENWVRLDSSIRSTEISNFELPEKLKDKPGKLIYVSMGSLASAVTELLTMILTPLANSPHRFIVSTGPNGDSIKLYDNMWGDKFINQVALLPKVDLFITHGGSNSLIEGLTAGKPLIAIPQFGDQLDNAQRIADLGLGVRLNLHEFSGEKLLKAIEDVLNDEKINANVARVSEELKKSDSKDKVISLIEKLARDKKL", "B8": "sacB Y421F (Priestia megaterium, UniProt D5DC07); chain KGNDSKDFNNSYGISHITRDNMVKIPQQQNSDQFKVPAFDESTIKNIASAKGKNASGNTIDLDVWDSWPLQNADGTVATYHGYQIVFALAGDPKDSNDTSVYLFYKKAGDKSIDSWKNAGRVFKDSDKFVPNDPHLKNQTQEWSGSGTLTKDGKVRLFYTDYSGKQYGKQTLTTAQVNMSQPNDNTLKVDGVEDYKSIFDGDGKIYQTVQQFIDEGGYDTGDNHTLRDPHYIEDNGHKYLVFEANTGTEDGYQGEDSLYNRAYYGGNNPFFQSEKKKLLEGSNKEKASLANGALGIIELNDDYTLKKVMKPLITSNTVTDEIERANIFKKDGKWYLFTDSRGSKMTIDGIGQDDVYMLGYVSNTLTGKYKPLNDTGLVLHMDLDPNDKTFTFSHFAVPQTKGDNVVITSYMTNRGFYEDNHSTFAPSFLVNIDGSKTSVVKDRVLEQGQLTVDED", "note": "Compare with care: the assays were run in different laboratories. Numbers after ± are the reported error.", "UniProt Q8QZR1, sequence (whole entry, looked up)": "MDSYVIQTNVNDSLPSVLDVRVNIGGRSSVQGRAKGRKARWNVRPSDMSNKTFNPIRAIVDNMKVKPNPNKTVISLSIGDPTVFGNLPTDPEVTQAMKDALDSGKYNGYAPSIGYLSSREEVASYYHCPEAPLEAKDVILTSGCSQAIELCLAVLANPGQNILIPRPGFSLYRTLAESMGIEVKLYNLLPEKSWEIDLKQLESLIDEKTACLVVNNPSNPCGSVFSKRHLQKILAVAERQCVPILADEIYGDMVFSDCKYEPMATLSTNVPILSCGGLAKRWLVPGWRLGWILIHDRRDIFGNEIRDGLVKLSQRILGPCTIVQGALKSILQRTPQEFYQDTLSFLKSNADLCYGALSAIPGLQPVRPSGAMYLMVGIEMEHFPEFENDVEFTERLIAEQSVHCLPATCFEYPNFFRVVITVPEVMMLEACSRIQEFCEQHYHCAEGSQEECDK", "UniProt P45370, sequence (whole entry, looked up)": "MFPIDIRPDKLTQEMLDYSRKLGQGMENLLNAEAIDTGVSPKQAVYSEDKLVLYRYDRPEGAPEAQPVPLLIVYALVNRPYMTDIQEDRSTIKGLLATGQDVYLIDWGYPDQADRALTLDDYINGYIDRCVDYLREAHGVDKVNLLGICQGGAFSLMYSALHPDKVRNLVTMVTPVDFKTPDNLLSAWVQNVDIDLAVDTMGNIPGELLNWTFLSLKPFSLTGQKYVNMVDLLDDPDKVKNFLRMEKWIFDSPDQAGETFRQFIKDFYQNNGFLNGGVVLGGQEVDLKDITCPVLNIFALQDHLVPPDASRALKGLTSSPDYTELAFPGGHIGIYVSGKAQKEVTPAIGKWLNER", "UniProt Q6PHW0, sequence (whole entry, looked up)": "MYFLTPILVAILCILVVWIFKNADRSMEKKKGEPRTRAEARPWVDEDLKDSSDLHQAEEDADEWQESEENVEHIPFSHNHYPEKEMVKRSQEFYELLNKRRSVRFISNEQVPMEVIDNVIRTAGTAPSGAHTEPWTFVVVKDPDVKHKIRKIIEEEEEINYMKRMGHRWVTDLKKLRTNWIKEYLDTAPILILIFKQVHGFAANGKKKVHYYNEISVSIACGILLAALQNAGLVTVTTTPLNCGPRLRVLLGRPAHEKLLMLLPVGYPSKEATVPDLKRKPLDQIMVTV"}
{"Molecule": "B1 (MSS116 T307A)", "substrate": "Nc1ncnc2c1ncn2[C@@H]1O[C@H](COP(=O)(O)OP(=O)(O)OP(=O)(O)O)[C@@H](O)[C@H]1O", "pH": "pH 7.5", "temperature": "37 °C", "with": "ATP", "kcat [s⁻¹]": "0.0128 ± 0.00433"}
{"Molecule": "B2 (MCAT R178Q)", "substrate": "CC(C)(COP(=O)(O)OP(=O)(O)OC[C@H]1O[C@@H](n2cnc3c(N)ncnc32)[C@H](O)[C@@H]1OP(=O)(O)O)[C@@H](O)C(=O)NCCC(=O)NCCSC(=O)CC(=O)O", "pH": "pH 6.8", "temperature": "20 °C", "setting": "labelled substrate", "with": "holo-ACP 20 µM", "kcat [s⁻¹]": "0.00217 ± 0.000167"}
{"Molecule": "B3 (bga)", "substrate": "O=[N+]([O-])c1ccccc1O[C@@H]1O[C@H](CO)[C@H](O)[C@H](O)[C@H]1O", "pH": "pH 6", "temperature": "40 °C", "setting": "low-substrate phase, biphasic", "kcat [s⁻¹]": "56.3 ± 11.9"}
{"Molecule": "enzyme (Pseudomonas putida, UniProt Q88P31)", "substrate": "NC(=O)c1ccc[n+]([C@@H]2O[C@H](COP(=O)(O)OP(=O)(O)OC[C@H]3O[C@@H](n4cnc5c(N)ncnc54)[C@H](OP(=O)(O)O)[C@@H]3O)[C@@H](O)[C@H]2O)c1", "pH": "pH 8", "temperature": "30 °C", "kcat [s⁻¹]": "102 ± 1"}
{"Molecule": "Tat (Mus musculus, UniProt Q8QZR1)", "substrate": "N[C@@H](CCC(=O)O)C(=O)O", "pH": "pH 7", "temperature": "38 °C", "with": "PLP", "kcat [s⁻¹]": "9.33 ± 0.667"}
{"Molecule": "B4 (BshA S17A)", "substrate": "O=C(O)C[C@H](O)C(=O)O", "pH": "pH 7.5", "temperature": "21 °C", "with": "UDP-GlcNAc 0–4 mM", "kcat [s⁻¹]": "2.5 ± 0.1"}
{"Molecule": "protein (Allochromatium vinosum, UniProt P45370)", "substrate": "CC[C@@H](O)CC(=O)SCCNC(=O)CCNC(=O)[C@H](O)C(C)(C)COP(=O)(O)OP(=O)(O)OC[C@H]1O[C@@H](n2cnc3c(N)ncnc32)[C@H](O)[C@@H]1OP(=O)(O)O", "pH": "pH 7.8", "temperature": "30 °C", "kcat [s⁻¹]": 98.1}
{"Molecule": "B5 (enzyme)", "substrate": "CCCCC/C=C\\C/C=C\\C/C=C\\C/C=C\\CCCC(=O)SCCNC(=O)CCNC(=O)[C@H](O)C(C)(C)COP(=O)(O)OP(=O)(O)OC[C@H]1O[C@@H](n2cnc3c(N)ncnc32)[C@H](O)[C@@H]1OP(=O)(O)O", "pH": "pH 7.5", "temperature": "28 °C", "kcat [s⁻¹]": "0.045 ± 0.00167"}
{"Molecule": "B6 (nicX)", "substrate": "Oc1ccc(O)nc1", "pH": "pH 7.5", "temperature": "20 °C", "with": "O2; Fe2+ 0.025 mM", "kcat [s⁻¹]": "1.28 ± 0.03"}
{"Molecule": "IYD (Homo sapiens, UniProt Q6PHW0)", "substrate": "COc1cc(C[C@H](N)C(=O)O)cc(I)c1O", "pH": "pH 7.4", "temperature": "25 °C", "with": "sodium dithionite 0.5%", "kcat [s⁻¹]": "0.72 ± 0.12"}
{"Molecule": "B7 (enzyme)", "substrate": "O=c1ccn([C@@H]2O[C@H](CO[P@@](=O)(O)O[P@@](=O)(O)O[C@H]3O[C@H](CO)[C@@H](O)[C@H](O)[C@H]3O)[C@@H](O)[C@H]2O)c(=O)[nH]1", "pH": "pH 7.8", "kcat [s⁻¹]": "0.088 ± 0.023"}
{"Molecule": "enzyme (Thermobifida fusca, UniProt Q47RK4)", "substrate": "CC(C)(COP(=O)(O)OP(=O)(O)OC[C@H]1O[C@@H](n2cnc3c(N)ncnc32)[C@H](O)[C@@H]1OP(=O)(O)O)[C@@H](O)C(=O)NCCC(=O)NCCSC(=O)CCCC(=O)O", "pH": "pH 7.4", "temperature": "37 °C", "kcat [s⁻¹]": "0.0035 ± 0.00065"}
{"Molecule": "B8 (sacB Y421F)", "substrate": "OC[C@H]1O[C@@](CO)(O[C@H]2O[C@H](CO)[C@@H](O)[C@H](O)[C@H]2O)[C@@H](O)[C@@H]1O", "pH": "pH 6.6", "kcat [s⁻¹]": "17.5 ± 1.6"}
{"note": "For quick reference, copied from above:"}
{"Molecule": "protein (Allochromatium vinosum, UniProt P45370)", "substrate": "CC[C@@H](O)CC(=O)SCCNC(=O)CCNC(=O)[C@H](O)C(C)(C)COP(=O)(O)OP(=O)(O)OC[C@H]1O[C@@H](n2cnc3c(N)ncnc32)[C@H](O)[C@@H]1OP(=O)(O)O", "pH": "pH 7.8", "temperature": "30 °C", "kcat [s⁻¹]": 98.1}
